Measurements collected from several papers.
Each line is one published result; not all experiments were run side by side. Numbers after ± are the reported error.

| Structure (SMILES) | tested on | assay | test system | conditions | endpoint | result |
| --- | --- | --- | --- | --- | --- | --- |
| Cc1cc(C#N)cc(C)c1Oc1nc(NC2CCN(Cc3ccccc3C#N)CC2)nc2ccccc12 | TZM-bl | cell growth or viability, XTT |  |  | CC50 | > 0.256 µM |
| C/C=C/CNC(=N)NCCCCCCCCN1CCCc2ccccc2COc2ccccc2CNC(=N)NC1=O | normal human dermal fibroblasts | MTT |  | 24 h | CC50 | > 100 µg/mL |
| C=C1C(=O)O[C@@H]2C[C@H](C)[C@@H]3C[C@H](OCc4cn(Cc5ccccc5)nn4)[C@H](O)[C@@]3(C)C[C@H]12 | BALB/c mouse splenocytes | propidium iodide flow cytometry |  | 48 h, 10% fetal calf serum | CC50 | 158 µM |
| CC(C)=CCC/C(C)=C/Cc1c(CCC(=O)c2ccc(O)cc2O)ccc(O)c1O | DLD-compound | CCK-8 |  | 48 h | CC50 | 19.7 ± 2.18 µM |
| Cc1cc(C#N)cc(C)c1Oc1nc(NC2CCN(Cc3ccc(C(N)=O)cc3)CC2)nc2cccnc12 | TZM-bl | cell growth or viability, XTT |  |  | CC50 | 48.1 µM |
| O=c1ccn([C@@H]2O[C@H](CO)[C@@H](O)[C@H]2F)c(=O)[nH]1 | SkMC | sulforhodamine B |  | 11 days, galactose medium | CC50 | > 250 µM |
| CC1CCC2C1C1C(CCC23CCC2=C(O3)C(C)(C)C(=O)C(=C(O)C=Cc3ccccc3)C2=O)C1(C)C (centres unmarked) | HEp-2 | cell growth or viability |  |  | CC50 | > 50 µM |
| [64Cu+2].c1cnc(CNCc2ccc(CN3CCCN4CCNCCCN(CC4)CC3)cc2)nc1 | CXCR4 |  | NOD/SCID mouse, U87 and U87-stb-CXCR4 xenografts, bladder | iv, 240 min, ex vivo | tissue uptake | 2 ± 0.35 %ID/g |
| CC1=CCC(C)(C)C=CCC2(C)OC3=C(CC2CC1)C(=O)C(=C(O)C=Cc1ccccc1)C(=O)C3(C)C (centres unmarked) | HEp-2 | cell growth or viability |  |  | CC50 | 47.3 µM |
| Cc1ccc(S(=O)(=O)Nn2c3c(cc(-c4nc5ccccc5s4)c2=O)CCCCCC3)cc1 | HEp-2 | cell growth or viability, trypan blue |  |  | CC50 | 330 µg/mL |
| C=C1CC[C@H]2Cc3c(c(C)c(O)c(C(=O)/C=C/c4ccccc4)c3OC)O[C@]2(C)CC[C@@H]2[C@@H]1CC2(C)C | HEp-2 | cell growth or viability |  |  | CC50 | > 50 µM |
| C=C1C(=O)O[C@@H]2C[C@H](C)[C@@H]3C[C@H](OCc4cn(Cc5ccccc5)nn4)[C@H](OCc4cn(Cc5ccccc5)nn4)[C@@]3(C)C[C@H]12 | BALB/c mouse splenocytes | propidium iodide flow cytometry |  | 48 h, 10% fetal calf serum | CC50 | 376 ± 6.57 µM |
| Cc1ccc(CN2CCC(Nc3nc(Oc4c(C)cc(C#N)cc4C)c4ccccc4n3)CC2)cc1 | TZM-bl | cell growth or viability, XTT |  |  | CC50 | > 0.261 µM |
| Nc1ccn([C@@H]2O[C@H](CO)[C@@H](O)[C@H]2F)c(=O)n1 | SkMC | sulforhodamine B |  | 11 days, galactose medium | CC50 | > 250 µM |
| C=C1CCC2CC3=C(OC2(C)CCC2C1CC2(C)C)C(C)(C)C(=O)C(=C(O)C=Cc1ccccc1)C3=O (centres unmarked) | HEp-2 | cell growth or viability |  |  | CC50 | > 50 µM |
| C/C=C/CNC(=N)NCCCCCCCCN1CCCc2ccc(F)cc2COc2ccccc2CNC(=N)NC1=O | normal human dermal fibroblasts | MTT |  | 24 h | CC50 | > 100 µg/mL |
| Cc1cc(/C=C/C#N)cc(C)c1Oc1nc(NC2CCN(Cc3ccc(C(N)=O)cc3)CC2)nc2ccccc12 | TZM-bl | cell growth or viability, XTT |  |  | CC50 | 53.7 µM |
| CC1(C)C(=O)C(=C(O)C=Cc2ccccc2)C(=O)C2=C1OC1(C)C(C2)CC2CC1C2(C)C (centres unmarked) | HEp-2 | cell growth or viability |  |  | CC50 | > 50 µM |
| Cc1cc(C#N)cc(C)c1Oc1nc(NC2CCN(Cc3ccc(S(C)(=O)=O)cc3)CC2)nc2cccnc12 | TZM-bl | cell growth or viability, XTT |  |  | CC50 | 43.3 µM |
| Cc1ccc2c(c1)C(C(C)C)CCC21CCC2=C(O1)C(C)(C)C(=O)C(=C(O)C=Cc1ccccc1)C2=O (centres unmarked) | HEp-2 | cell growth or viability |  |  | CC50 | > 50 µM |
| Cc1cc(C#N)cc(C)c1Oc1nc(NC2CCN(Cc3ccccc3Br)CC2)nc2ccccc12 | TZM-bl | cell growth or viability, XTT |  |  | CC50 | > 0.231 µM |
| COc1c(C)c2c(c(O)c1C(=O)C=Cc1ccccc1)CC1CCC(C)=CCC(C)(C)C=CCC1(C)O2 (centres unmarked) | HEp-2 | cell growth or viability |  |  | CC50 | > 50 µM |
| Nc1ncnc2c1ncn2[C@@H]1O[C@H](CO)[C@@H](O)[C@H]1F | SNB-78 | sulforhodamine B |  | 11 days, galactose medium | CC50 | 51 µM |
| Cc1cc(/C=C/C#N)cc(C)c1Oc1nc(NC2CCN(Cc3ccc(S(C)(=O)=O)cc3)CC2)nc2ncccc12 | TZM-bl | XTT |  | up to 30 µg/mL | CC50 | not toxic |
| CC1=C(OC2CC3CCC2(C)C3(C)C)C(C)(C)C(=O)C(=C(O)C=Cc2ccccc2)C1=O (centres unmarked) | HEp-2 | cell growth or viability |  |  | CC50 | 44.5 µM |
| Cc1cc(/C=C/C#N)cc(C)c1Oc1nc(NC2CCN(Cc3ccc(S(C)(=O)=O)cc3)CC2)nc2ccccc12 | TZM-bl | cell growth or viability, XTT |  |  | CC50 | 33.1 µM |
| Cc1cc(OCc2nnc(SC3CCCC3)n2-c2cccnc2)ccc1-c1ccc(S(C)(=O)=O)cc1 | human foreskin fibroblasts | MTS |  | 6 days | CC50 | 4 µM |
| OC[C@H]1O[C@@H](n2cnc3c(O)ncnc32)[C@H](F)[C@@H]1O | SkMC | sulforhodamine B |  | 11 days, galactose medium | CC50 | > 250 µM |
| Cc1nc([C@@H](NC(=O)c2ccc(-c3ccc(Cl)cc3)[nH]2)[C@@H]2CCCCN2)sc1CO | TZM-bl | cell growth or viability, XTT |  |  | CC50 | ~28 µM |
